Published values from different studies.
Parts stem from different laboratories: compare values within a part only.

Study 1
Target: Histone acetyltransferase KAT6A, winged helix 2, GST fusion (KAT6A, Homo sapiens, UniProt Q92794, residues 85-181)
Method: protein binding microarray
Molecule type: double-stranded DNA, one strand shown
Matrix: in vitro
Tested at: not given
Notes: 8-mer, flanks averaged, mean of 2 arrays, mostly near background
Relative to: not given
Reading: higher = stronger binding
Measurement: E-score
Residues (chain): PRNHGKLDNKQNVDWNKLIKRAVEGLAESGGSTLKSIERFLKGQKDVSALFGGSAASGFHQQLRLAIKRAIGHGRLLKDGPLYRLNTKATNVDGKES
ACGATGCG: 0.102
CAGGGAGA: 0.0178
TATGTAAA: 0.00854
ACCAATAT: -0.0209
ACGCCGTC: 0.0992
AAACCCTC: 0.00611
ATGGCGAA: 0.0718
ACCCCCCT: -0.18
GGCCCGAC: 0.0735
CGGGTACC: 0.102
ATAGCTAG: -0.157
GACCATGA: -0.0365
ACGACAAG: -0.111
ACCGGTCG: 0.112
ACTATATA: -0.109
GAAGCCAA: 0.0404
AACACGAA: 0.0433
AAGACCTC: -0.0266
AATACCTG: -0.11
CTTGAATA: 0.052

Study 2
Target: Fragile X messenger ribonucleoprotein 1, C-terminal low-complexity region (Fmr1, Mus musculus, UniProt P35922)
Method: RNA Bind-n-Seq
Molecule type: RNA
Matrix: in vitro
Tested at: 200 nM
Notes: whole 134-nt RNA, ends assumed
Added: 150 mM LiCl
Relative to: input library
Reading: higher = stronger binding
Measurement: log2 enrichment
All molecules: 7-deaza-guanosine replaces G
Shared flanks, not repeated: GGGAGUUCUACAGUCCGACGAUC … UGGAAUUCUCGGGUGUCAAGG
AAGUCCUGUGCUACACAUCGUAUGUACCGAAUCGGGGUUUGGGGUUUGGGGAGGGGAAAGUAUUAUGUUACGCCGUUCGGAUCUGCACUU: -0.614
UCCUGUGCUACACAUCGUAUGUACCGAAUCAAACCCCCAAAUUUUUAAACCCCCCCAAAAAAGUAUUAUGUUACGCCGUUCGGAUCUGCA: 2.26
UCAAGUCCUGUGCUACACAUCGUAUGUACCGAAUCGGGGUGGGGUGGGGAGGGGAAAGUAUUAUGUUACGCCGUUCGGAUCUGCACUUCC: -0.673
UGGCCCUGGUGGCAUGCGGGGAGGAAGAGGUGGCCUCAUGGAUCGUGGUGGUCCCGGUGGAAUGUUCAGAGGUGGCCGUGGUCGAGACAG: -1.38
AGUCCUGUGCUACACAUCGUAUGUACCGAAUCAAAUUUAAAUUUUUUUAAAUUUAAAAAAGUAUUAUGUUACGCCGUUCGGAUCUGCACU: -3.24
CACAGACAACACGCACCCACACAGACACAGAGGGAAGGGGUUGGGAUGGGGACAGGGUGCACAGCAGGGCGGGGUAGGACCCCAGCCGCU: -0.362
GCAGGAAGUAAAAACAAAUGGAAAUGCUUCGGAUAGUGGCAGGGGUGGGGGUUGCUAAGGAAAGGGUGGGACGGGAGUGGGUAAAGAGUU: 1.27
CAAGUCCUGUGCUACACAUCGUAUGUACCGAAUCAAACCCAAAUUUAAAUUUAAAAAAGUAUUAUGUUACGCCGUUCGGAUCUGCACUUC: 0.393
AAGUCCUGUGCUACACAUCGUAUGUACCGAAUCGGGAAAAAGGGAGGGUUUUUGGGAAAGUAUUAUGUUACGCCGUUCGGAUCUGCACUU: -1.8
AGUCCUGUGCUACACAUCGUAUGUACCGAAUCGGGGUUUUUGGUUUUUGGUUUUUGGGAAAGUAUUAUGUUACGCCGUUCGGAUCUGCAC: -1.86
CCUCAAGUCCUGUGCUACACAUCGUAUGUACCGAAUCGGGGCGGCGGGCGGGAAAGUAUUAUGUUACGCCGUUCGGAUCUGCACUUCCAG: -1.07

Study 3
Target: Myc proto-oncogene protein, bHLH-zipper, MAX partner unstated (MYC, Homo sapiens, UniProt P01106, residues 368-449)
Sequence of UniProt P01106 (368-449, looked up): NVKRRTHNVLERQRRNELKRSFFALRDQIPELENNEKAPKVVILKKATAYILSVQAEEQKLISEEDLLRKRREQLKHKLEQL
Method: protein-binding microarray
Molecule type: double-stranded DNA, one strand shown
Matrix: in vitro
Tested at: not given
Notes: k-mer, scored over probes, only values ≥0.25
Reading: higher = stronger binding
Measurement: E-score
ACACGCTC: 0.299
ACATGCCG: 0.419
CGACATGA: 0.253
GCATGCTA: 0.396
GCGTGACA: 0.389
ACACGGGG: 0.38
ATGTGCCA: 0.298
CATGGCGA: 0.332
AACGTGAT: 0.292
CATGCTCC: 0.394
CGCGTGTA: 0.455
ATGCTTCC: 0.311
GAACATGC: 0.399
CGGCCACA: 0.287
CACGCCCA: 0.339
GCGCCGCA: 0.258
CACGTTAG: 0.326
CATATGGA: 0.287
AGGTACAC: 0.264

Study 4
Target: RNA binding protein fox-1 homolog 2, RRM domain, GST-SBP tag (RBFOX2, Homo sapiens, UniProt O43251-10, residues 100-194)
Method: RNA Bind-n-Seq
Molecule type: RNA
Matrix: in vitro
Tested at: 365 nM
Notes: natural RNA segment, single round, ends assumed
Relative to: no-protein control
Reading: higher = stronger binding
Measurement: RBNS enrichment (R)
Shared flanks, not repeated: GGGAGUUCUACAGUCCGACGAUC … UGGAAUUCUCGGGUGCCAA
Construct (chain): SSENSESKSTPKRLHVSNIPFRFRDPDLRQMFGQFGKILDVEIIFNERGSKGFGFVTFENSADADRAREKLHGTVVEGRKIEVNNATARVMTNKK
GAUCAACUGUGUCUUAAGGCUCUCCAGCCUAUGCAUACUGUAUCCUGCUUCAGACUUAGGUACAAUUGCUCCCCUUUUUAUAUAUAGACACACACAGGACACAUAUAUUA: 0.379
GCCUUUGGCCCCCUUACUUUUCAGCAAGCCAGGGGCCCAGCAGUCAGCUCCCAGGAUGUGUGGGGAGCUGUCCCUGACUCUGCAGGCCUGAGCGAGUGUGUGAGCAUGCG: 25
UUCAAAGAGGUGAACAUUAAAAUAUAGAGACAGGACAGAAUGUGUUCUUUUCUCCUUUACCAGUCCUAUUUUUCAAUGGGAAGACUCAGGAGUCUGCCACUUGUCAAAGA: 0.957
AGUCAAACUUUAUUACAACAAUAACUGAAGUUAUUCUUUUAGGUUCUCGUGAAAUUCUCACUGAAAGCCACAUUCUUAGCCUAAGGCAUUUCAUCUUUUAUGAUAUAAAA: 0.283
CAGAAAAGCUAUGAUUCCAUUAGAAGACUUCUGGAGGUCCCCAGAUCUUUGGAGUGUGGGAAUGGAAGCUGCUUUGAGGCAAAGGCUCAUAAACCCUGCAAGUCUUCAUG: 0.3
GGAGCAUUCUGGGAUGGUUUUGUUUCUCCCUUUUUGUGCCGAAUGGAGAAUAAAAUACUUCAAACGACUUGCAAAUAGAUAUUAUUCUUGCGUUGCAAGAACUGUAAGUC: 0.399
AUUUUUGUUUUCCUAAAGAAAAUGCCUAAUAUAGAGAAAACAAUACAUAUCUUUACAGCUUAUUUGAAUGUGAGAAUUGGAAUAUUACCUGUAUAUAUCAGAUGAGCAGU: 0.908
AGUUCAAAGGAGUCUGCAAUUGGAACUGCUGAUUUUCGGUGGGUUUUGUAGUUGAUUUUUCCAAGAGCGUCGAAGACUCUCUUUCUCUUGGUUCACCUUGCCUGUCGCUA: 0.675
UAAUUUAUUUUGUCGAAUUUUUAUUAUUUGUUUUCCCGCCAAGCGGAAAAGGUUUUAUUUUGUAAUUAUUGUGAUUUCCCGUGGCCCCAGCCUGGCCCAGCUCCCCCGGG: 0.927
AACAACAAUCCAGGUCACAUACCUGCCUUCCAGUCAGAAGAGCAAACGCCCUAAGCACUUCCUGGAACUGAAGAGCUUUAAGGACAACUAUAACACACUGGAGAGCACUC: 0.343
GAAAGGUUGCGUUUAAUAUAUUUUUUGAACUUUGUAGGACAAAACAUAGCUGGUUAACCUUGAAGUGACUGUUGUACCAUGGUUGUGCACAUGCUUCAGAAUCCUAUGGA: 0.336
AGAACCCACCAGGAGCAGCAGAGUCCCUCUCUGGGAAGGCAGGCUCCCUGAAAUGUGGCAUCAGCAUGAAAACAAGCAGCCUGUCUUUCCUCAUUAACUGGGAGUCCCAC: 6.92

Study 5
Target: Centromere-binding protein 1, full length, N-terminal tag (CBF1, Saccharomyces cerevisiae, UniProt P17106, residues 1-351)
Sequence of UniProt P17106 (whole entry, looked up): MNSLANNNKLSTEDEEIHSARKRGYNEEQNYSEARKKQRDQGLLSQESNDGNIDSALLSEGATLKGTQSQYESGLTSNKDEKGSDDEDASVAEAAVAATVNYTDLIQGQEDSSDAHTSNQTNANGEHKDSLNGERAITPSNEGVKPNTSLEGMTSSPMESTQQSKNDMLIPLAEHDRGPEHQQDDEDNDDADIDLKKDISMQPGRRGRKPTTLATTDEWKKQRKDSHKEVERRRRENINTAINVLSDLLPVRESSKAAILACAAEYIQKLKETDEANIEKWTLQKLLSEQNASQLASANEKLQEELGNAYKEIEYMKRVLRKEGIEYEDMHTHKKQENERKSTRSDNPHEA
Method: protein-binding microarray
Molecule type: double-stranded DNA, one strand shown
Matrix: in vitro
Tested at: 0.8 µM
Notes: whole 60-bp probe, no competitor
Reading: higher = stronger binding
Measurement: fluorescence intensity
Shared flanks, not repeated: … GTCTTGATTCGCTTGACGCTGCTG
CTAATATATATCTACTAGATCACGTTGCAAGACTTC: 2260 a.u.
GAAATGGTTGTATTATTGGTGGTGTCAGTAGGGTAG: 556 a.u.
CTAGAATTCCTTTGTAACGTGCAAAGCATTTTATTC: 697 a.u.
CTAGAAAAGCCGCCTCTGCTGATCATGAATGACTTC: 531 a.u.
GAACTCCACGGTGAGAACGTGATGTGATAGCCGTAG: 1980 a.u.
GAAGAACGAATTCCAGGTGATTCCGATAAGATTTAG: 554 a.u.
GAAGCAGTATGCACTTGGGTGACATGTAAAAGTTAG: 523 a.u.
CTAATGTGTCAACTTCGCGTGCTCGTAAAAAAGTTC: 609 a.u.
CTAAACATAGGAGATCACGTATTAGTGCATAGATTC: 752 a.u.
GAACAACACACTCTTCCCGTGATGCGAATGGTATAG: 876 a.u.
CTAGGAGAAGACAGGCACGCAGAAACGAACGTTTTC: 480 a.u.
CTATCTGACACGCACGTGATGACCACGTAATCGTTC: 9070 a.u.
CTAAAAAGAACTGTGTACGTGATTTCTTTGTCCTTC: 697 a.u.
CTAGGAATTGTGCGTGGTCATTCAATACGGAGATTC: 585 a.u.
GAAAAACCCTTAGGTCATCTGATTTTTAGGGTTTAG: 1150 a.u.
CTACAAAGGAGGGAGGTCGTGATAACAAACTGATTC: 641 a.u.

Some of these lines once more (study 3):
GCGTGACA: 0.389
CGACATGA: 0.253
CGCGTGTA: 0.455
CATATGGA: 0.287
GCATGCTA: 0.396
ACACGCTC: 0.299
ACATGCCG: 0.419
CACGTTAG: 0.326
ATGCTTCC: 0.311
CGGCCACA: 0.287
CACGCCCA: 0.339
